Assay results gathered from unrelated publications.
Numbers after ± are the reported error.
Rbpj: Rbpj 53-474 (Mus musculus, UniProt P31266)
Chain of UniProt P31266 (whole entry, looked up): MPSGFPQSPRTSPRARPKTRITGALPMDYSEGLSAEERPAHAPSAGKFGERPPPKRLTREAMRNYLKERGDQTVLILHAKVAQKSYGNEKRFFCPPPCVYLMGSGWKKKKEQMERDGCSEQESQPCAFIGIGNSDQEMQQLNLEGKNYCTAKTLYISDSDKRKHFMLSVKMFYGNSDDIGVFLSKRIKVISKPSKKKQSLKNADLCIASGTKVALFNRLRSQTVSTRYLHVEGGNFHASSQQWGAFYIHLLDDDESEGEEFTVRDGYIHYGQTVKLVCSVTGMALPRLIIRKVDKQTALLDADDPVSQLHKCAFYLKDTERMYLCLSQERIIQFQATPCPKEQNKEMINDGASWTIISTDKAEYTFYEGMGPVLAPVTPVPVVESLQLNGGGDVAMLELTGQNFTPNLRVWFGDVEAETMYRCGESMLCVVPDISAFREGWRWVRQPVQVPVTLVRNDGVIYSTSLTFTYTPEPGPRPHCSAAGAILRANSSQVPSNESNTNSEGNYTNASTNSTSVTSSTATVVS
B1: VCL 879-1066 (Homo sapiens, UniProt P18206-2); sequence looked up; chain EEKDEEFPEQKAGEVINQPMMMAARQLHDEARKWSSKGNDIIAAAKRMALLMAEMSRLVRGGSGTKRALIQCAKDIAKASDEVTRLAKEVAKQCTDKRIRTNLLQVCERIPTISTQLKILSTVKATMLGRTNISDEESEQATEMLVHNAQNLMQSVKETVREAEAASIKIRTDAGFTLRWVRKTPWYQ
Chain of UniProt O60656 (whole entry, looked up): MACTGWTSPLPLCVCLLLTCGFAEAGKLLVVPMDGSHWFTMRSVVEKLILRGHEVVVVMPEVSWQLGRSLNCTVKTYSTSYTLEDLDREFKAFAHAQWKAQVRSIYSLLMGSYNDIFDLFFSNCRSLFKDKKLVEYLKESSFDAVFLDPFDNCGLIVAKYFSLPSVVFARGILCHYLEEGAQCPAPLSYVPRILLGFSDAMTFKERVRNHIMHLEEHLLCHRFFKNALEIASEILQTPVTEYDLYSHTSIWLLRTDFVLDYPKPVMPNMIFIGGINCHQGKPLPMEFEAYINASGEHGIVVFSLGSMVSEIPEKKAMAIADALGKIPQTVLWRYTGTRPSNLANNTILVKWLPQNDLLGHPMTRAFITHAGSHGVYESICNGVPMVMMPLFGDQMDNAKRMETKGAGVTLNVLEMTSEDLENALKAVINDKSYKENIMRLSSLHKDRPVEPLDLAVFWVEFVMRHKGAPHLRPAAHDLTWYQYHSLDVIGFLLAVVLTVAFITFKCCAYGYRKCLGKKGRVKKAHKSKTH
Chain of UniProt O15111 (whole entry, unmodified, looked up): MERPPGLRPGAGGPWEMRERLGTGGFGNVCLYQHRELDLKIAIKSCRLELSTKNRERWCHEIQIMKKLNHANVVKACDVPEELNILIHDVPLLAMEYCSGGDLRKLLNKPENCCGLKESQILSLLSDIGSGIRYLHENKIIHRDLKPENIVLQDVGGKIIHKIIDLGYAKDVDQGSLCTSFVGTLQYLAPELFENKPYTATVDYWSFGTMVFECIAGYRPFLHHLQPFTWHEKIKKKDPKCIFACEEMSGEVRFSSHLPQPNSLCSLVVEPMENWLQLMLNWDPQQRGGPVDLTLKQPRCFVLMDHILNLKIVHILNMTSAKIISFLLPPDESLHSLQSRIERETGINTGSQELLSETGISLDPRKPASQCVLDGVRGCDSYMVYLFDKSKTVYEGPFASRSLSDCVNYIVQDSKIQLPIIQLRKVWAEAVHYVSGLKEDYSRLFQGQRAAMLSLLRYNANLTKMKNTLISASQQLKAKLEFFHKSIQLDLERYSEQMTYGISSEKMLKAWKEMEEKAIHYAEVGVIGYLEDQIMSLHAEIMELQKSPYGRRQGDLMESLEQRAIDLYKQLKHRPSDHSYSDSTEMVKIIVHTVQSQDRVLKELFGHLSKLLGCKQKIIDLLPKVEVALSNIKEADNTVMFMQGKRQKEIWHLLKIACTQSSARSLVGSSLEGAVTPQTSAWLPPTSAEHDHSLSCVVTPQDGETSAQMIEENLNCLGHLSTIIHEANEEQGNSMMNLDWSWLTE
Chain of UniProt Q9HD67 (whole entry, unmodified, looked up): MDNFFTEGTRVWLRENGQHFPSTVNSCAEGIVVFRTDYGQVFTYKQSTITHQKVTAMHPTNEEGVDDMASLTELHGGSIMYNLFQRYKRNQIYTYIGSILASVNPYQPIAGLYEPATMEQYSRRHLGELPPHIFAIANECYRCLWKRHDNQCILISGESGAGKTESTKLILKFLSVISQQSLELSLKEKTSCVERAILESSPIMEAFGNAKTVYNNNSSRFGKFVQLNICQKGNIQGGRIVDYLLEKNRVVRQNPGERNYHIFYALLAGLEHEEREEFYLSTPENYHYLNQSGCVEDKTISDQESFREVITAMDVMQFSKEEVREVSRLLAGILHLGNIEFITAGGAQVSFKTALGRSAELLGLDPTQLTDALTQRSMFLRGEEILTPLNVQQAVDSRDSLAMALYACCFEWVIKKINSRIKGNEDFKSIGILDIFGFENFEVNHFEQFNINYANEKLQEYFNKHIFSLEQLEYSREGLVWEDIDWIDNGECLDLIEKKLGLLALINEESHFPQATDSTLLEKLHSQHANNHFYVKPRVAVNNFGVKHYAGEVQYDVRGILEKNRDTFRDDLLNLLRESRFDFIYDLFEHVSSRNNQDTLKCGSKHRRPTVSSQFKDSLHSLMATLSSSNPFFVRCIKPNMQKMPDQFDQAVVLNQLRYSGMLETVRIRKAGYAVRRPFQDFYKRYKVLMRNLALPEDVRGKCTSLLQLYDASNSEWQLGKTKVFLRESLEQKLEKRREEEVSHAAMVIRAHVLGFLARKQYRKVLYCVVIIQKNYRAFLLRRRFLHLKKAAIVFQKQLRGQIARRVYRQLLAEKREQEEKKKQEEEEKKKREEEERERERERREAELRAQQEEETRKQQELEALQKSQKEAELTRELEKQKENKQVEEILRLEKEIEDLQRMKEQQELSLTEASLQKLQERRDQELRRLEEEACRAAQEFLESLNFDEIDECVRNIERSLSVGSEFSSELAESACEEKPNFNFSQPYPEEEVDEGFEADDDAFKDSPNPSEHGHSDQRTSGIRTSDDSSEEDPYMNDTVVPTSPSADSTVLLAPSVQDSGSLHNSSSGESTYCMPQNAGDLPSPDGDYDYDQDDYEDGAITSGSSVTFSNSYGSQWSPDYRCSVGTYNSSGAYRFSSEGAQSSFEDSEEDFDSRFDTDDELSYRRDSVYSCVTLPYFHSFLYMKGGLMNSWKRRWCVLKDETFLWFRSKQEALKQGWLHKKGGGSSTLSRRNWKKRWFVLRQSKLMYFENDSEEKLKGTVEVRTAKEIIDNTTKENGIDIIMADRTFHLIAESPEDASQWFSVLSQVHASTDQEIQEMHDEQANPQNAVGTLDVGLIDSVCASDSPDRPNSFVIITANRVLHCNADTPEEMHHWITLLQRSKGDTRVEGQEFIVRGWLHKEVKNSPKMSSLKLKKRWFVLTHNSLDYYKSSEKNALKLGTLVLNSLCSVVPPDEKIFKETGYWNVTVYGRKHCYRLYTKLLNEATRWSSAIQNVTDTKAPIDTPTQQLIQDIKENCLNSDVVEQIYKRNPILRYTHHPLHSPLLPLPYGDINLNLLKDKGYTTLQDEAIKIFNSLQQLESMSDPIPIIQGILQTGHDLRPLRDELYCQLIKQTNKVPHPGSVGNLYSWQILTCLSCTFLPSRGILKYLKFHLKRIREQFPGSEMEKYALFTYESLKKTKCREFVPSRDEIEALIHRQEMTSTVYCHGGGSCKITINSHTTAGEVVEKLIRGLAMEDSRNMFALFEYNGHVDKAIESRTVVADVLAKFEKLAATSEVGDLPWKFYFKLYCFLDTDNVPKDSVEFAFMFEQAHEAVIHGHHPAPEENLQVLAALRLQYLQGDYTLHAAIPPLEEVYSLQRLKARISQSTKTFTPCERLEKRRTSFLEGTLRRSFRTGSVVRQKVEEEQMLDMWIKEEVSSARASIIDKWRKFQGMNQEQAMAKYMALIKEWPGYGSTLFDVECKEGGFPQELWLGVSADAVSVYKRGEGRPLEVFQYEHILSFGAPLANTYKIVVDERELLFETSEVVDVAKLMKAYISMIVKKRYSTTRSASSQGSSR
Chain of UniProt Q8IY67 (whole entry, unmodified, looked up): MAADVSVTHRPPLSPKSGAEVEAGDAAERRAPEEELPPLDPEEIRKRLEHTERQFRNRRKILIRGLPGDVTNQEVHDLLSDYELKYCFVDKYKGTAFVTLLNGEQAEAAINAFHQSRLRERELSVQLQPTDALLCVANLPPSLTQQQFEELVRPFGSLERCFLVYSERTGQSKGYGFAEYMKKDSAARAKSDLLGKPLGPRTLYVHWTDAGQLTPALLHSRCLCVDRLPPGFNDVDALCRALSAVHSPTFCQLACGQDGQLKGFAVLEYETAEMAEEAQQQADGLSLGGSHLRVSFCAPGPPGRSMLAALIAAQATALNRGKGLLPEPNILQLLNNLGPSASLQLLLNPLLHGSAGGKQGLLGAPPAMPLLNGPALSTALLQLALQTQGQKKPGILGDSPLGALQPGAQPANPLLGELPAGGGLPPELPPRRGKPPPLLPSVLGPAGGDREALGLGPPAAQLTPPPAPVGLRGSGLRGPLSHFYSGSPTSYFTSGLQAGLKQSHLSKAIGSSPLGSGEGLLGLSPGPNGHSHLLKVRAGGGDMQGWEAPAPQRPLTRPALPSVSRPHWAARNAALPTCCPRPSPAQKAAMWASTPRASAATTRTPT
Chain of UniProt Q12798 (whole entry, unmodified, looked up): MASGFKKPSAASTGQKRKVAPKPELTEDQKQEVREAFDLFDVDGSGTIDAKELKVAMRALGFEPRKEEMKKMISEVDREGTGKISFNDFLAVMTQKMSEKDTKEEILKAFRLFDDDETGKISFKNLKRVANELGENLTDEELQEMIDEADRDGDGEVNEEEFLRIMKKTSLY

`KLLITIHDRKEFAKFEEERARAKW (ITGB3 742-765 (Homo sapiens, UniProt P05106); sequence looked up)` has a ΔH of -0.406 ± 0.215 kcal/mol (Myom1 IgC2 domains 4-5 C1354S (Mus musculus); ITC; peptide).
`NFKBIA peptide to 317 C308L, C-terminal amide (Homo sapiens)` gave a ΔH of -13.7 kcal/mol (CHUK 10-667 S176E/S180E (Homo sapiens, UniProt O15111); ITC).
The ΔH of `MENVKAATATTTWMVPTAQ (L3MBTL3 52-70 K57A (Homo sapiens, UniProt Q96JM7-2); sequence looked up)` is reported as -11.9 kcal/mol (Rbpj; ITC; peptide; pH 6.5, 25 °C, NaCl 150 mM).
`B1 (VCL 879-1066)` has a ΔH of -15.1 ± 0.5 kcal/mol (RAVER1 59-130 (Homo sapiens, UniProt Q8IY67); ITC; 23 °C, NaCl 150 mM).
With `Ac-SQHNRQLLRGALRRWK-NH2 (SFI1 repeat 18, 677-692 (Homo sapiens); N-acetyl; C-terminal amide)` the ΔH was -39.4 kcal/mol (CETN1, phosphothreonine (Homo sapiens, UniProt Q12798); ITC; peptide; pH 7.5, 30 °C, one-site model, with: CaCl2 1 mM).
`ARSPLLPVSVPTAPEVSEESHKPTEDSANVYEQDDLSEQMASLEGLMKQLNAITGSAF (DCC 1390-1447 (Homo sapiens, UniProt P43146); sequence looked up)` has a ΔH of -4.98 ± 0.04 kcal/mol (MYO10 MyTH4-FERM 1486-2058 del1872-1891 (Homo sapiens, UniProt Q9HD67); ITC; peptide; pH 8.5, 20 °C, NaCl 150 mM).
The ΔH of `MENVKKATATTTWMVPTAQ (L3MBTL3 52-70 (Homo sapiens, UniProt Q96JM7-2); sequence looked up)` is reported as -13.1 kcal/mol (Rbpj; ITC; peptide; pH 6.5, 25 °C, NaCl 150 mM).
With `UGT1A9 (Homo sapiens, UniProt O60656)` the Vmax was 0.00293 µmol/min/mg (Cc1c(-c2ccccc2)oc2cc(O)ccc2c1=O; steady-state kinetics; pH 7.4, 37 °C).
`MENVKKATATTTWMVPTRQ (L3MBTL3 52-70 A69R (Homo sapiens, UniProt Q96JM7-2); sequence looked up)` has a ΔH of -13.8 kcal/mol (Rbpj; ITC; peptide; pH 6.5, 25 °C, NaCl 150 mM).
`KWDTANNPLYKEATSTFTNITYRGT (ITGB3 764-788 (Homo sapiens, UniProt P05106); sequence looked up)` gave a ΔH of -0.167 ± 0.0239 kcal/mol (Myom1 IgC2 domain 4 (Mus musculus); ITC; peptide).

Some of these lines once more:
`ARSPLLPVSVPTAPEVSEESHKPTEDSANVYEQDDLSEQMASLEGLMKQLNAITGSAF (DCC 1390-1447 (Homo sapiens, UniProt P43146); sequence looked up)` has a ΔH of -4.98 ± 0.04 kcal/mol (MYO10 MyTH4-FERM 1486-2058 del1872-1891 (Homo sapiens, UniProt Q9HD67); ITC; peptide; pH 8.5, 20 °C, NaCl 150 mM).
